Published values pooled from the literature.
Each numbered part is a random draw from the data of one study; scales do not carry over between parts. Changes are numbered by the printed parent chain.

Set 1
Target: ABI1, truncated, D143A, DHFR fusion (Arabidopsis thaliana)
Method: DHFR PCA, deep sequencing
Matrix: yeast
Setting: methotrexate growth selection, single substitutions
With: (+)-ABA 4.8 µM
Baseline: wild-type fitted maximum
Direction: higher = stronger binding
Parent: PYL1, truncated, DHFR fusion (Arabidopsis thaliana); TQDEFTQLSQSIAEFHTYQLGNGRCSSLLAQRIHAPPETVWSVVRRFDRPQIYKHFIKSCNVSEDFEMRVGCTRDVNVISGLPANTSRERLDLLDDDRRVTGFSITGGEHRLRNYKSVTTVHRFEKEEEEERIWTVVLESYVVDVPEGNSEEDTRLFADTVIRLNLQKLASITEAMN
For `F5T`, “relative binding score” read 60.5%.
`T154K` — result for “relative binding score”: 5.03%.
For `N114M`, “relative binding score” read 3.1%.
`W134L`: “relative binding score” 75.3%.
`K54M`: “relative binding score” 6.79%.
Under “relative binding score”, `S150V` is recorded as 14.7%.
`R45E` — result for “relative binding score”: -2.37%.

Set 2
Target: CCND2, cyclin fold, Cln2 fusion (human)
Method: yeast growth competition, sequencing
Matrix: yeast
Setting: weak parent motif
Baseline: not given
Direction: higher = stronger binding
Parent: CDKN1B docking peptide (human); PSACRNLFGPVDH; partner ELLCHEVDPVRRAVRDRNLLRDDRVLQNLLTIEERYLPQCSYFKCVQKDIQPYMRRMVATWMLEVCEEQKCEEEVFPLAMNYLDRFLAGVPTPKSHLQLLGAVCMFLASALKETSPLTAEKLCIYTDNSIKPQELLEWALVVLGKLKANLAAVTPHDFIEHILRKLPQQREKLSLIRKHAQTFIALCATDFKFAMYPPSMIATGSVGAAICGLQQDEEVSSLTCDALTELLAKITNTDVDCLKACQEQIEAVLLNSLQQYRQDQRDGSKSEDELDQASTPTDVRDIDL
`P10V` — result for “normalised enrichment score”: -0.0772.
For `S2P`, “normalised enrichment score” read 0.135.
For `R5S`, “normalised enrichment score” read 0.0562.
For `C4M`, “normalised enrichment score” read -0.157.
`P10N`: “normalised enrichment score” 0.188.
Under “normalised enrichment score”, `C4G` is recorded as -0.00991.
Under “normalised enrichment score”, `C4H` is recorded as 0.0982.
`P10Q`: “normalised enrichment score” 0.139.
For `H13A`, “normalised enrichment score” read 0.349.
`P1V` — result for “normalised enrichment score”: 0.0736.

Set 3
Target: Histone acetyltransferase KAT6A, winged helix 2, GST fusion (KAT6A, Homo sapiens, UniProt Q92794, residues 85-181)
Method: protein binding microarray
Form: double-stranded DNA, one strand shown
Matrix: in vitro
Concentration: not given
Setting: 8-mer, flanks averaged, mean of 2 arrays, mostly near background
Baseline: not given
Direction: higher = stronger binding
Target sequence (chain): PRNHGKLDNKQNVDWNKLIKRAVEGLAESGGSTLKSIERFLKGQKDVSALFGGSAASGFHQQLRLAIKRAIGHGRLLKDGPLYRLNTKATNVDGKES
`ACTCCAAC` has an E-score of 0.0925.
The E-score of `CCTCCCAC` is reported as 0.133.
`CGTTGCCC` has an E-score of -0.00436.
The E-score of `TGTAGAAA` is reported as -0.035.
With `AGGTTAAT` the E-score was 0.111.
For `GGGAAGAA`, the E-score was -0.0312.
The E-score of `CTACTAGA` is reported as -0.0868.
`ATAAGCTG` gave an E-score of -0.106.
`AGATGCTC` gave an E-score of 0.0478.

Further values, each from its own experiment
`PhoQ, residues 284 288 289 292 302 303 SCCLKL` gave a fold induction of 3.81 (PhoP, residues 12 14 15 18 19 VHSCL (Escherichia coli, UniProt P23836); Sort-seq, measured: YFP reporter; E. coli; PhoQ-PhoP variant library, with: 10 µM Mg2+; baseline: high Mg2+ state, higher = stronger signaling).
